Literature values, collected from citations in different studies.
Lines come from different studies, so protocols differ.
CA2: Carbonic anhydrase 2 (CA2, Homo sapiens, UniProt P00918)
UniProt Q16740, sequence (whole entry, looked up): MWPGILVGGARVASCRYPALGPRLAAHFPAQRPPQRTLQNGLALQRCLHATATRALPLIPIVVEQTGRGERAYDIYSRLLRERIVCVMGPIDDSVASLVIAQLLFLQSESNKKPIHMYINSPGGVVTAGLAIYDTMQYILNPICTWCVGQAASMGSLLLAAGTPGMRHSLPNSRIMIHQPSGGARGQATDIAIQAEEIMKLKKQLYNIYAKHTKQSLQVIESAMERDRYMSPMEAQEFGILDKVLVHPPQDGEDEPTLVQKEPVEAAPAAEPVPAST
UniProt Q6W5P4, sequence (whole entry, looked up): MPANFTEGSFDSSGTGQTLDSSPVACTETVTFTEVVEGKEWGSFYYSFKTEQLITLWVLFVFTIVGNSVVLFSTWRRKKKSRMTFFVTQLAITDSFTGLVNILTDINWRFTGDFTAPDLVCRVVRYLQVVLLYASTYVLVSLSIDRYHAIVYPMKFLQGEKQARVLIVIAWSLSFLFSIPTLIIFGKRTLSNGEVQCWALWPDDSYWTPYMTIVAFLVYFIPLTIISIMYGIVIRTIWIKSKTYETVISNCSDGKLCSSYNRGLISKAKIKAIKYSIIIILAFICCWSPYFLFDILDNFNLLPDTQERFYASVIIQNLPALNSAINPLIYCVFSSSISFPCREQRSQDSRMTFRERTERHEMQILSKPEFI
UniProt P25090, sequence (whole entry, looked up): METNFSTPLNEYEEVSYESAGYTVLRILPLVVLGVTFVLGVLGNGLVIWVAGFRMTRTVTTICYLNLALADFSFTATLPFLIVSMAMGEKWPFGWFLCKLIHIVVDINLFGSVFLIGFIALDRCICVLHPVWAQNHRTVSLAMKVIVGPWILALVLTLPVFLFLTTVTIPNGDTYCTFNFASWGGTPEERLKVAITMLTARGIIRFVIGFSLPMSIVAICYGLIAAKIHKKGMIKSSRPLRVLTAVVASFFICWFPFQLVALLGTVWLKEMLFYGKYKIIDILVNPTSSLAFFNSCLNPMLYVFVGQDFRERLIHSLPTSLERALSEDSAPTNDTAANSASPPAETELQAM
UniProt Q9UM73, sequence (whole entry, looked up): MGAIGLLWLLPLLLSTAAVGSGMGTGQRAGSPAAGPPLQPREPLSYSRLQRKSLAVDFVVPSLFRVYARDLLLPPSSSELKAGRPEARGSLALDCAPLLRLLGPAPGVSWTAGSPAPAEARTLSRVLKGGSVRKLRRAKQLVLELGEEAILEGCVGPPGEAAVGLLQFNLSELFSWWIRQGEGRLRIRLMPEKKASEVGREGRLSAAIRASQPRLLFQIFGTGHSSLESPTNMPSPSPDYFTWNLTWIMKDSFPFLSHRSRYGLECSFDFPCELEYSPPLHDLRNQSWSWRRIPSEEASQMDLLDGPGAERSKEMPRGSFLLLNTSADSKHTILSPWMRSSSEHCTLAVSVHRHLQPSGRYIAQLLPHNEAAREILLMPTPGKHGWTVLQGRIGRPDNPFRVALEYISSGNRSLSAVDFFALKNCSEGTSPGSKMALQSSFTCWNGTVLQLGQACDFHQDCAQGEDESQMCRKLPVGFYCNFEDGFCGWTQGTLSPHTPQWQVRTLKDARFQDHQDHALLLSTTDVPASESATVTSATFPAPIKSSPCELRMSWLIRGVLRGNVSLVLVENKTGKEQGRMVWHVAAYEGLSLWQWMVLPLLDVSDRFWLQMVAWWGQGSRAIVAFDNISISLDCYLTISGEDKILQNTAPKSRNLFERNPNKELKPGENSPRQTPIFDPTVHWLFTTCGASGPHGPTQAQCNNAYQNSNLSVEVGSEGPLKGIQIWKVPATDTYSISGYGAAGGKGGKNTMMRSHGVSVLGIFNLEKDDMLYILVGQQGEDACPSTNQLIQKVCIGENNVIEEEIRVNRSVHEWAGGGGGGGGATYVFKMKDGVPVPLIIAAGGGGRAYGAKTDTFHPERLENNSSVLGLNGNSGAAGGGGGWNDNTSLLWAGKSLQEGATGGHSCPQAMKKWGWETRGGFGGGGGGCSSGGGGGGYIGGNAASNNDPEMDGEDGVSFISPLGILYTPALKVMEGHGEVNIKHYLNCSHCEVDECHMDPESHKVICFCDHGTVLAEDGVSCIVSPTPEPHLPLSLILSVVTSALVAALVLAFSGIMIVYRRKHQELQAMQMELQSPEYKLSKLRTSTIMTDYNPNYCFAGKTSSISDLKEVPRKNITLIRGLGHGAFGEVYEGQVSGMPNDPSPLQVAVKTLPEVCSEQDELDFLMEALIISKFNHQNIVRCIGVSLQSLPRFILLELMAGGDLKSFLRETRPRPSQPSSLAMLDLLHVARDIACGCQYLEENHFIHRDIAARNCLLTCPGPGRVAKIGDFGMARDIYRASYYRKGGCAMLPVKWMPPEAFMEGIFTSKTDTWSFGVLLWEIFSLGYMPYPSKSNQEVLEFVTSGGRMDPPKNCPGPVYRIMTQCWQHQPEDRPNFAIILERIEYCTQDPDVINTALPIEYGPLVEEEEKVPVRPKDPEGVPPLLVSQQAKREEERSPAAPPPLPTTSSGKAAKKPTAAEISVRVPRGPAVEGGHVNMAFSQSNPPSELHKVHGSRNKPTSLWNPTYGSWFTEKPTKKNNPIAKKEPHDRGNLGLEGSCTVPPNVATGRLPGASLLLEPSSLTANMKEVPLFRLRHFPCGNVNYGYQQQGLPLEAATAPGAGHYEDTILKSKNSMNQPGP
UniProt Q9HC35, sequence (whole entry, looked up): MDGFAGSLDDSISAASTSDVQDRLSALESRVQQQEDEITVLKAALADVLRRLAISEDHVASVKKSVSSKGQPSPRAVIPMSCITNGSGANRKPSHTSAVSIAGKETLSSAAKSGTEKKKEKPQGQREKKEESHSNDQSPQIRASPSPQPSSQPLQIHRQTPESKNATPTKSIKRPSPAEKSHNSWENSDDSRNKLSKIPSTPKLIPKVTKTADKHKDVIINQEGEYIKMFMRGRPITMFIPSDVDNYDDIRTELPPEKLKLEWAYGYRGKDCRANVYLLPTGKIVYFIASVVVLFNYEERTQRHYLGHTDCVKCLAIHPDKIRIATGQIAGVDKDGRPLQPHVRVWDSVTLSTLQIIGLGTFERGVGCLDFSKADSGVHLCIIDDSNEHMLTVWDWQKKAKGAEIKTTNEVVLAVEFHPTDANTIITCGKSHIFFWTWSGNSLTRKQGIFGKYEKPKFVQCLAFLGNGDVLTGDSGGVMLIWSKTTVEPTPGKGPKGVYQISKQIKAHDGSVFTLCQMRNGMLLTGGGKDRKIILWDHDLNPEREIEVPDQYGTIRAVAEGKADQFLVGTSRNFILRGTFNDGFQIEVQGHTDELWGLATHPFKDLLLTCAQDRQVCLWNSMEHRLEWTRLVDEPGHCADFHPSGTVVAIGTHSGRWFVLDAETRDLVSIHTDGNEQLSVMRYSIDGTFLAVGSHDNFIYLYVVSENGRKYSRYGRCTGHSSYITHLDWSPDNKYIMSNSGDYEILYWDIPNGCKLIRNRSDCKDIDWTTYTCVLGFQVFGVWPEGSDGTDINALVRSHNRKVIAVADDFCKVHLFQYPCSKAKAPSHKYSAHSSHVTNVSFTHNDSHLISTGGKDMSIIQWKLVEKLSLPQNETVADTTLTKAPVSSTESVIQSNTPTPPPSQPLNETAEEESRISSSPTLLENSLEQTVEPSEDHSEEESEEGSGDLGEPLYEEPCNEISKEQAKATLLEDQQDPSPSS

| SMILES | tested on | assay | test system | conditions | measurement | value |
| --- | --- | --- | --- | --- | --- | --- |
| Cc1cc(S(N)(=O)=O)c(Cl)cc1NC1CCCCC1 | CA2 | thermal shift |  | pH 7.0, 37 °C | Kd | 5000 nM |
| Cc1ccccc1-c1cc(N2CCNCC2)ncc1N(C)C(=O)C(C)(C)c1cc(C(F)(F)F)cc(C(F)(F)F)c1 |  |  | cancer patients, plasma | oral, dose not given, netupitant-palonosetron fixed combination, with: etoposide 35-100 mg/m^2 IV | AUC(0-inf) | 4200 ng·h/mL |
| O=S(=O)(NCB(O)O)c1ccc(-c2nnn[nH]2)cc1C(F)(F)F | ADC-7 beta-lactamase | inhibitor |  |  | Ki | 0.45 nM |
| CCCCC[C@H](O)/C=C/C=C\C=C\C=C\[C@@H](O)[C@@H](O)CCCC(=O)O | FPR2 (Homo sapiens, UniProt P25090) | monocyte adherence, agonist |  |  | EC50 | ~0.8 nM |
| C/C(=N\NC(=O)CSc1nc2ccccc2c(=O)n1CCc1ccc(S(N)(=O)=O)cc1)c1ccccc1 | CA9 (Homo sapiens, UniProt Q16790) |  |  |  | Ki | 55.7 nM |
| CC(=O)O[C@H]1C2=C(C(=O)C(OC(=O)c3ccccc3)=C(C(C)C)C2=O)[C@@]2(C)CCCC(C)(C)[C@@H]2[C@@H]1OC(=O)c1ccccc1 | HL-60 | cell growth |  |  | GI50 | ≤ 5000 nM |
| O=C1C2=C(CCN(Cc3ccccc3)C2)N2CCN=C2N1Cc1ccc(C(F)(F)F)cc1 | CLPP (Homo sapiens, UniProt Q16740) | enzyme activity |  |  | EC50 | 130 nM |
| NS(=O)(=O)c1c(F)c(F)c(S(=O)(=O)CCO)c(N[C@H]2CCc3ccccc32)c1F | CA2 | thermal shift |  | pH 7.0, 37 °C | Kd | 17 nM |
| N=C(N)NCCC[C@H](NC(=O)[C@H](Cc1ccccc1)NC(=O)[C@@H](N)CO)C(=O)N[C@@H](CC(N)=O)C(=O)NCC(N)=O | NPSR1 (Homo sapiens, UniProt Q6W5P4) | calcium mobilization, agonist |  | receptor variant | EC50 | > 2000 nM |
| NS(=O)(=O)c1c(F)c(F)cc(F)c1N[C@H]1CCCc2ccccc21 | CA2 | thermal shift |  | pH 7.0, 37 °C | Kd | 2200 nM |
| Nc1c2ncn3c2nc[n+]1[C@@H]1O[C@H](COP(=O)(O)OP(=O)([O-])OC[C@H]2O[C@@H]3C[C@@H]2O)[C@@H](O)[C@H]1O | cADPR receptor, sea urchin | Ca2+ release, agonist | sea urchin egg homogenate |  | EC50 | 58 nM |
| COc1ccc2nc3cc(Cl)ccc3c(NCCCCNc3nc(N)nc(N)n3)c2c1 | RNA repeat r(CUG)4 | binding |  |  | Kd | 430 nM |
| NS(=O)(=O)c1c(F)c(F)c(SCCO)c(NC(c2ccccc2)C(O)c2ccccc2)c1F (stereo not drawn) | CA2 | thermal shift |  | pH 7.0, 37 °C | Kd | 64 nM |
| CCCC(=O)O[C@@H]1[C@@H](OC(C)=O)C2=C(C(=O)C(O)=C(C(C)C)C2=O)[C@@]2(C)CCCC(C)(C)[C@H]12 | MCF7 | cell growth |  |  | GI50 | 5000 to 10000 nM |
| Nc1c2ncn3c2nc[n+]1[C@@H]1O[C@H](COP(=O)(O)OP(=O)([O-])OC[C@H]2O[C@@H]3[C@H](O)[C@@H]2O)[C@@H](O)[C@H]1O | cADPR receptor, sea urchin | Ca2+ release, agonist | sea urchin egg homogenate |  | EC50 | 32 nM |
| CC(=O)[C@@]1(O)CC[C@H]2[C@@H]3CCC4=CC(=O)CC[C@]4(C)[C@H]3CC[C@@]21C | glucocorticoid receptor | agonist |  |  | EC50 | 7140 nM |
| COCCOCCOCCOCCC(=O)NCc1cc(CNC(=O)CCOCCOCCOCCOC)cc(-c2cc3cc4nc(c(OC)c5[nH]c(cc6nc(cc2[nH]3)CC6(C)C)cc5-c2cc(CNC(=O)CCOCCOCCOCCOC)cc(CNC(=O)CCOCCOCCOCCOC)c2)CC4(C)C)c1 |  |  | PBS | room temperature | Qy emission FWHM | 23 nm |
| COc1cc2c(cc1OC)[C@@H]1C[C@H](O)[C@@H](CC(C)C)CN1CC2 | dopamine D2 receptor | binding |  |  | Ki | 0.058 µg/mL |
| CN1CCN(c2cc(-c3ccccc3CO)c(N(C)C(=O)C(C)(C)c3cc(C(F)(F)F)cc(C(F)(F)F)c3)cn2)CC1 |  |  | healthy volunteers, plasma | oral, 300 mg, fed, fixed-dose combination, with: palonosetron 0.5 mg | AUC(0-inf) | 5750 ng·h/mL |
| Nc1c2ncn3c2nc[n+]1[C@@H]1C[C@H](COP(=O)(O)OP(=O)([O-])OC[C@H]2O[C@@H]3[C@H](O)[C@@H]2O)[C@@H](O)[C@H]1O | cADPR receptor (sea urchin) | agonist | sea urchin egg homogenate |  | EC50 | 79 nM |
| COc1cc(N2CCN(C(=O)CCOCCOCCOCCNC(=O)CN)CC2)ccc1Nc1ncc(Cl)c(Nc2ccccc2P(C)(C)=O)n1 | ALK tyrosine kinase receptor/Echinoderm microtubule-associated protein-like 4 (Homo sapiens, UniProt Q9HC35+Q9UM73) | degrader | H3122 |  | DC50 | 500 nM |

Repeated from above:
| SMILES | tested on | assay | test system | conditions | measurement | value |
| --- | --- | --- | --- | --- | --- | --- |
| COCCOCCOCCOCCC(=O)NCc1cc(CNC(=O)CCOCCOCCOCCOC)cc(-c2cc3cc4nc(c(OC)c5[nH]c(cc6nc(cc2[nH]3)CC6(C)C)cc5-c2cc(CNC(=O)CCOCCOCCOCCOC)cc(CNC(=O)CCOCCOCCOCCOC)c2)CC4(C)C)c1 |  |  | PBS | room temperature | Qy emission FWHM | 23 nm |
| COc1cc2c(cc1OC)[C@@H]1C[C@H](O)[C@@H](CC(C)C)CN1CC2 | dopamine D2 receptor | binding |  |  | Ki | 0.058 µg/mL |
| CN1CCN(c2cc(-c3ccccc3CO)c(N(C)C(=O)C(C)(C)c3cc(C(F)(F)F)cc(C(F)(F)F)c3)cn2)CC1 |  |  | healthy volunteers, plasma | oral, 300 mg, fed, fixed-dose combination, with: palonosetron 0.5 mg | AUC(0-inf) | 5750 ng·h/mL |
